Assay results collected from several papers.
Protocols differ between the studies behind these lines. Several values in a cell are separate wells, animals, samples, runs or records. ± marks the error that the study gave. Values after ≈ are worked out from the molar mass of the structure shown.

CCCCc1c([N+](=O)[O-])oc2ccc3ccccc3c12 — MIC90 (Enterobacter cloacae; REMA): > 32 µg/mL
COc1cc(F)c(F)c(Nc2ccc(I)cc2F)c1NS(=O)(=O)C1(C[C@H](O)CO)CC1 — metabolic activity (Aspergillus fumigatus; 20 µM; baseline: untreated): ≥ 80%
COC(=O)c1ccc2c(ccc3oc([N+](=O)[O-])cc32)c1 — MIC90 (Mycobacterium avium subsp. hominissuis; REMA; ATCC 25291): 2 µg/mL (≈ 7.37 µM)
OB(O)c1csc2ccccc12 — biofilm formation (Staphylococcus aureus; crystal violet; USA300 wild type; 5 µM; baseline: wild type untreated): 70.8% and 51.8% and 51.2%
CS(=O)(=O)CCCn1c(Cn2c(=O)n(CC(F)(F)F)c3ccncc32)cc2cc(Cl)ccc21 — LS mean viral load change (respiratory syncytial virus; RT-qPCR; hospitalized infants 1-24 months, nasal swab; oral, 2, 1.5 or 1 mg/kg daily, day 5, low dose by age cohort; baseline: baseline): -4.27 log10 copies/mL
CC[C@H](CC[C@@H](C)[C@H]1CC[C@H]2[C@@H]3CCC4=CC(=O)CC[C@]4(C)[C@H]3CC[C@]12C)C(C)C — antileishmanial activity (Leishmania mexicana; mouse C57BL/6 bone marrow-derived macrophages, intracellular amastigotes; concentration not given, 48 h): inactive
CNCC(=O)N[C@@H](CO)C(=O)N[C@H]1[C@H](O)[C@@H](O)[C@H](n2ccc(N)nc2=O)O[C@@H]1C(N)=O — EC50 (Tobacco mosaic virus; protective activity; plant in vivo): 271 ± 2.8 µg/mL (≈ 611 µM)
CN1CCN(Cc2cc(NC(=O)c3ccc4c(c3)CN(c3ccccc3)CC4)cc(C(F)(F)F)c2)CC1 — inhibition (murine hepatitis virus; viral replication, nanoluciferase reporter; DBT; 1 µM; baseline: DMSO vehicle): 5%
CC(C)[C@H](NC(=O)[C@H](CCCNC(=N)N)NC(=O)[C@H](Cc1c[nH]c2ccccc12)NC(=O)[C@H](CCCNC(=N)N)NC(=O)[C@H](Cc1c[nH]c2ccccc12)NC(=O)[C@H](Cc1c[nH]c2ccccc12)NC(=O)[C@H](Cc1c[nH]c2ccccc12)NC(=O)[C@H](CCCNC(=N)N)NC(=O)[C@H](Cc1c[nH]c2ccccc12)NC(=O)[C@H](CCCNC(=N)N)NC(=O)CN)C(N)=O — MIC (Candida albicans; broth microdilution; CGMCC 2.209, RPMI 1640-MOPS; 48 h, 30 °C): 8 µM
COC(=O)C1=C(C)NC(C)=C(C(=O)OC(C)(C)CN(C)CCC(c2ccccc2)c2ccccc2)C1c1cccc([N+](=O)[O-])c1 (centres unmarked) — metabolic activity (Aspergillus fumigatus; Alamar blue; 62.5 µg/mL, 48 h, with: caspofungin 0.2 µg/mL): 20.2% and 22.6%
Cc1c2c(nn1C)CSCc1cc(n(C)n1)CSc1cc(c3ccccc3c1)OCCCc1c(C(=O)O)n(C)c3c-2c(Cl)ccc13 — log2 fold change (Staphylococcus aureus; label-free proteomics, item: tdcB; SA113; concentration not given; baseline: untreated): -4.7
C[C@@H]1CN(c2cc(-c3nn(C)c4ccc(OC5(C)CC5)cc34)ncn2)C[C@H](C)O1 — inhibition (murine hepatitis virus; viral replication, nanoluciferase reporter; DBT; 1 µM, 10 h; baseline: DMSO vehicle): 20%
CC(=O)O[C@H]1C[C@H](O[C@H]2[C@@H](O)C[C@H](O[C@H]3[C@@H](O)C[C@H](O[C@H]4CC[C@@]5(C)[C@H](CC[C@@H]6[C@@H]5C[C@@H](O)[C@]5(C)[C@@H](C7=CC(=O)OC7)CC[C@]65O)C4)O[C@@H]3C)O[C@@H]2C)O[C@H](C)[C@H]1O[C@@H]1O[C@H](CO)[C@@H](O)[C@H](O)[C@H]1O — selectivity index (human alphaherpesvirus 1; primary human keratinocytes, K26 GFP; baseline: CC50 over IC50): 3.67
CNC(=O)c1ccccc1Nc1cc(Nc2ccc(N3CCOCC3)cc2OC)ncc1C(F)(F)F — inhibition (murine hepatitis virus; viral replication, nanoluciferase reporter; DBT; 1 µM, 10 h; baseline: DMSO vehicle): 26%
C[C@@H](O)[C@H]1C(=O)N2C(C(=O)O)=C(SCCN=CN)C[C@H]12 — MIC (Klebsiella pneumoniae; KPC-2 parental strain K4(2731)): 64 µg/mL
N=C(N)NCCC[C@H](NC(=O)[C@H](Cc1c[nH]c2ccccc12)NC(=O)[C@H](CCCNC(=N)N)NC(=O)[C@H](Cc1c[nH]c2ccccc12)NC(=O)[C@H](Cc1c[nH]c2ccccc12)NC(=O)[C@H](Cc1c[nH]c2ccccc12)NC(=O)[C@H](CCCNC(=N)N)NC(=O)[C@H](Cc1c[nH]c2ccccc12)NC(=O)[C@H](CCCNC(=N)N)NC(=O)CN)C(N)=O — MIC (Candida albicans; broth microdilution; 56452, RPMI 1640-MOPS; 48 h, 30 °C): 4 µM
C#Cc1ccc(O)c(C=NNC(=O)c2ccc(C3(C(F)(F)F)N=N3)cc2)c1 — FICI (Aspergillus fumigatus; 293; unit not given, with: voriconazole; lower = more synergy): 2
COc1cc(Nc2nccc(-c3cnn4nc(OC)ccc34)n2)cc(C(F)(F)F)c1 — inhibition (murine hepatitis virus; viral replication, nanoluciferase reporter; DBT; 1 µM, 10 h; baseline: DMSO vehicle): 61%
Nc1ncnc2c1ncn2[C@@H]1O[C@@H]2COP(=O)(O)O[C@H]3[C@@H](O)[C@H](n4cnc5c(=O)[nH]cnc54)O[C@@H]3COP(=O)(O)O[C@H]2[C@H]1O — fold enrichment (West Nile virus; RNA sequencing Reactome analysis, item: M Phase (R-HSA-68886); HFF-1; concentration not given, upregulated pathways, with: West Nile virus infection; baseline: WNV-infected without compound): 2.7
CC[C@H](C)[C@H](NC(=O)[C@H](C)NC(=O)[C@H](CCCCN)NC(=O)[C@H](CC(C)C)NC(=O)[C@H](C)NC(=O)[C@@H](NC(=O)[C@H](Cc1c[nH]cn1)NC(=O)[C@H](CC(C)C)NC(=O)[C@@H](NC(=O)[C@@H](NC(=O)[C@H](CCCCN)NC(=O)[C@H](C)NC(=O)[C@H](C)NC(=O)[C@H](CO)NC(=O)[C@H](CCCCN)NC(=O)[C@H](Cc1ccccc1)NC(=O)[C@@H](NC(=O)[C@H](CCCCN)NC(=O)[C@H](CC(C)C)NC(=O)[C@H](Cc1ccccc1)NC(=O)[C@H](CO)NC(=O)[C@H](CCCCN)NC(=O)[C@H](Cc1c[nH]c2ccccc12)NC(=O)[C@H](CCCCN)NC(C)=O)[C@@H](C)O)[C@@H](C)O)C(C)C)[C@@H](C)O)C(=O)N[C@@H](CO)C(=O)N[C@@H](CO)C(N)=O — MIC50 (Enterobacter cloacae; 40 strains): 8 µg/mL (≈ 2.73 µM)
Cn1cc(Cl)c2c(Oc3c(F)cc(Nc4cc(Cl)nc(N)n4)cc3F)ccnc21 — inhibition (murine hepatitis virus; viral replication, nanoluciferase reporter; DBT; 1 µM, 10 h; baseline: DMSO vehicle): -8%
CC(C)C[C@H](NC(=O)OCc1ccccc1)C(=O)N[C@H](C=O)C[C@@H]1CCCNC1=O — EC90 (Norovirus; viral replication; HG23 replicon cells; 96 h): 9.3 ± 0.34 µM
CC1=C(C(=O)Nc2cc3cn[nH]c3cc2F)C(c2ccc(C(F)(F)F)cc2)CC(=O)N1 (centres unmarked) — inhibition (murine hepatitis virus; viral replication, nanoluciferase reporter; DBT; 1 µM, 10 h; baseline: DMSO vehicle): 18%
CCOC(=O)COc1ccc2ccc3oc([N+](=O)[O-])cc3c2c1 — MIC90 (Mycobacterium avium subsp. hominissuis; REMA; ATCC 25291): 0.0625 µg/mL (≈ 0.198 µM)
C[C@H](NC(=O)[C@H](CCCNC(=N)N)NC(=O)[C@H](Cc1c[nH]c2ccccc12)NC(=O)[C@H](CCCNC(=N)N)NC(=O)[C@H](Cc1c[nH]c2ccccc12)NC(=O)[C@H](Cc1c[nH]c2ccccc12)NC(=O)[C@H](Cc1c[nH]c2ccccc12)NC(=O)[C@H](CCCNC(=N)N)NC(=O)[C@H](Cc1c[nH]c2ccccc12)NC(=O)[C@H](CCCNC(=N)N)NC(=O)CN)C(N)=O — MIC (Candida albicans; broth microdilution; 14936, RPMI 1640-MOPS; 48 h, 30 °C): 8 µM
Nc1ncnc2c([C@@H]3N[C@H](CO)[C@@H](O)[C@H]3O)c[nH]c12 — inhibition (Measles morbillivirus; viral replication; Vero 76, Chicago; 0.1 µM): 0%

Some of these lines once more:
CCOC(=O)COc1ccc2ccc3oc([N+](=O)[O-])cc3c2c1 — MIC90 (Mycobacterium avium subsp. hominissuis; REMA; ATCC 25291): 0.0625 µg/mL (≈ 0.198 µM)
C[C@H](NC(=O)[C@H](CCCNC(=N)N)NC(=O)[C@H](Cc1c[nH]c2ccccc12)NC(=O)[C@H](CCCNC(=N)N)NC(=O)[C@H](Cc1c[nH]c2ccccc12)NC(=O)[C@H](Cc1c[nH]c2ccccc12)NC(=O)[C@H](Cc1c[nH]c2ccccc12)NC(=O)[C@H](CCCNC(=N)N)NC(=O)[C@H](Cc1c[nH]c2ccccc12)NC(=O)[C@H](CCCNC(=N)N)NC(=O)CN)C(N)=O — MIC (Candida albicans; broth microdilution; 14936, RPMI 1640-MOPS; 48 h, 30 °C): 8 µM
